Published values pooled from the literature.
Compare with care: the assays were run in different laboratories. Several values in a cell are separate wells, animals, samples, runs or records. ± marks the error that the study gave.

Structure (SMILES)	organism	test	test system	setting	scale	measurement	result
Cc1cc(C(=O)NC(C)(C)COc2cccc3c2C(N)=NS(=O)(=O)N3)cc(C)n1	Salmonella typhimurium	Ames test, initial	TA1537	5000 µg/plate	relative to: solvent control	revertant ratio	1.2
CNC(=O)c1c(N(C)N=O)ncn1C	Escherichia coli	mutagenicity, Ames plate incorporation	WP2 uvrA pKM101	5000 µg/plate, without S9, methanol		revertant colonies per plate	132 ± 4
Cc1c(Cl)c(=O)oc2cc(OCCCC[Se]C#N)ccc12	Caenorhabditis elegans		N2 Bristol, NGM with E. coli OP50	10 µM, 3 days		developmental defects	0%
COc1cccc(-c2n[nH]c(SCc3ccccn3)n2)c1OC	Salmonella typhimurium	Ames test, preincubation	TA1535	0.25 mg/plate, without S9		revertant colonies per plate	16
COCCN(CCOC)N=O	Escherichia coli	mutagenicity, Ames plate incorporation	WP2 uvrA pKM101	1500 µg/plate, 3 d, without S9, methanol		revertant colonies per plate	140 ± 3
CC(C)C[C@H](NC(=O)[C@H](Cc1c[nH]cn1)NC(=O)[C@H](Cc1c[nH]cn1)NC(=O)[C@H](Cc1ccc(O)cc1)NC(=O)[C@@H](N)CS)C(=O)N[C@H](C(=O)N[C@@H](CC(C)C)C(=O)N[C@H](C(=O)N[C@H](C(=O)NCC(=O)NCC(=O)N[C@@H](CO)C(=O)O)C(C)C)[C@@H](C)O)C(C)C	Epstein-Barr virus		B-NDG humanized mouse, EBV-infected	20 mg/kg, day 28		body weight	20.9 g and 22.1 g
CC(C)N(C)N=O	Escherichia coli	mutagenicity, Ames plate incorporation	WP2 uvrA pKM101	1500 µg/plate, 3 d, without S9, methanol		revertant colonies per plate	141 ± 12
[Cl-].[Cl-].[Pt+2].[Ru+2].c1ccc(-c2nc3ccccc3nc2-c2ccccn2)nc1.c1cnc2c(c1)ccc1cccnc12.c1cnc2c(c1)ccc1cccnc12	Danio rerio		embryos	60 µM, 0 h		survival rate	100%
OC(CCN1CC=C(c2ccc(F)cc2)CC1)c1ccc(F)c2ccccc12 (stereo not drawn)	Salmonella typhimurium	SOS/umu test	TA1535/pSK1002	0.008 mg/mL, 4 h, with S9, full range		survival	94.8%
CC(=O)N1CCC(C(=O)N2CCN3C(=O)c4cc(-c5ccccc5)ccc4NC(=O)C3C2)CC1 (stereo not drawn)	Salmonella typhimurium		TA1535	5.0 µg/plate		revertants per plate	12
O=[N+]([O-])c1ccc(N2CCC(NCCC(O)c3ccc(F)c4ccccc34)CC2)c(C(F)(F)F)c1 (stereo not drawn)	Salmonella typhimurium	genotoxicity, SOS/umu test	TA1535/pSK1002	0.008 mg/mL, 4 h, without S9, lower range		induction factor	1.1
CN(CC(C)(C)C)N=O	Salmonella typhimurium	mutagenicity, Ames plate incorporation	TA1535	500 µg/plate, without S9, methanol		revertant colonies per plate	23.3 ± 3

A few entries again:
Structure (SMILES)	organism	test	test system	setting	scale	measurement	result
CC(C)C[C@H](NC(=O)[C@H](Cc1c[nH]cn1)NC(=O)[C@H](Cc1c[nH]cn1)NC(=O)[C@H](Cc1ccc(O)cc1)NC(=O)[C@@H](N)CS)C(=O)N[C@H](C(=O)N[C@@H](CC(C)C)C(=O)N[C@H](C(=O)N[C@H](C(=O)NCC(=O)NCC(=O)N[C@@H](CO)C(=O)O)C(C)C)[C@@H](C)O)C(C)C	Epstein-Barr virus		B-NDG humanized mouse, EBV-infected	20 mg/kg, day 28		body weight	20.9 g and 22.1 g
